Published values collected from several papers.
Protocols differ between the studies behind these lines. ± gives the spread as reported.

Structure (SMILES)	cell line	test	test system	conditions	how to read	measurement	result
CC(=O)Nc1ccc(OC(=O)CCC(=O)[O][Pt-2]23([O]C(=O)CCC(=O)Oc4ccc(NC(C)=O)cc4)([NH2+][C@@H]4CCCC[C@H]4[NH2+]2)[O]C(=O)C(=O)[O]3)cc1	4T1		supernatant	concentration not given, 24 h	relative to: untreated	IFN-beta level	3.1 fold
O=C(N1CCCC1)n1cc(-c2ccc(-c3ccccc3)cc2)nn1	mouse T-cells	N-terminal labeled proteins, N-terminal enrichment proteomics, refers to: NDUFV2		1 nM, 6 h	relative to: DMSO	SILAC ratio	1.12 ± 0.19
COc1cc(CNC(=O)C[C@H](C)CCC=C(C)C)ccc1OCc1cn(-c2cccc(Cl)c2)nn1	SR leukaemia cells	SRB		10 µM, 48 h		growth percent	61.4%
CC(=O)O[C@@H]1CC[C@@]2(C)C(CC[C@]3(C)C2C(=O)C=C2C4[C@@H](C)[C@H](C)CC[C@]4(C)CC[C@]23C)[C@@]1(C)C(=O)N/N=C1/C(=O)Nc2ccccc21 (stereo partly drawn)	HepG2			10 µM, acetaminophen-induced injury, together with: 10 mM acetaminophen		MDA level	4.7 nmol/mg
CC(Cc1ccc(Cl)cc1)=C(c1ccc(Cl)cc1)c1ccc(OCCN2CCCC2)cc1	NCI-60 tumour cell lines			10 µM, mean over cell lines		growth inhibition	26.7%
CCNc1cc2c(cc1C)C1(c3cc(C)c(NCC)cc3O2)c2ccccc2C(=O)N1N=Cc1c[c-]c(-c2ccccn2)cc1.Cc1c(C)c(-c2ccc(-c3ccccc3)cc2)[c-](C)c1C.[Cl-].[Ir+3]	A549	JC-1 flow cytometry		up to 2 × IC50		mitochondrial membrane potential	no effect
COc1cc(CNC(=O)C[C@H](C)CCC=C(C)C)ccc1OCc1cn(-c2ccc(F)cc2)nn1	MDA-MB-468 breast cancer cells	SRB		10 µM, 48 h		growth percent	65%
O=C1OCC2=C1C(c1cccc(Br)c1)C1=C(N2)C(=O)c2ccccc2C1=O (stereo not drawn)	SK-LU-1 cells	annexin V/PI		0.08 µM, 24 h		early apoptotic cells	6.05%
CC(C)=CCc1c(O)cc(CO)cc1O	HepG2, palmitic acid-induced insulin resistance			2.5 µM, 24 h		glucose consumption	4.64 ± 0.57 mM
O=Cc1c(O)ccc2ccccc12	HUVEC	RNA sequencing, refers to: RAB39B		75 µM, 24 h	relative to: DMSO	log2 fold change	3.31
C=CC(=O)Nc1ccc(F)c(-c2ncnc3[nH]cc(C(=O)OCC)c23)c1	mouse CD4 T-cell blasts	cell proliferation		together with: IL-2		EC90	15 nM
Cc1cccc(-c2cn([C@@H]3O[C@H](CO)[C@@H](O)[C@H]3O)c3ncnc(N)c23)c1	HEK	cytotoxicity				EC50	> 200000 nM
COc1cc(CNC(=O)C[C@H](C)CCC=C(C)C)ccc1OCc1cn(-c2cccc([N+](=O)[O-])c2)nn1	OVCAR-8 ovarian cancer cells	SRB		10 µM, 48 h		growth percent	23.7%
O=C(/C=C/c1cccc(S(=O)(=O)NCc2ccc(F)cc2)c1)NO	MOPC-315	cell growth		24 h	relative to: belinostat	relative potency	0.695
COc1cc(CNC(=O)C[C@H](C)CCC=C(C)C)ccc1OCc1cn(-c2ccccc2[N+](=O)[O-])nn1	OVCAR-8 ovarian cancer cells	SRB		10 µM, 48 h		growth percent	48.6%
Cc1cc(/N=N/c2ccc(/N=N/c3ccc(O)c(C(=O)O)c3)cc2)c(N)cc1N	primary mouse articular chondrocytes	real-time PCR, refers to: Phlpp2		25 µM		mRNA level	decreased
COc1cc(CNC(=O)C[C@H](C)CCC=C(C)C)ccc1OCc1cn(-c2ccccc2Cl)nn1	UACC-257 melanoma cells	SRB		10 µM, 48 h		growth percent	60.3%
COc1cc(Cc2c[nH]c3ncc(C(F)(F)F)cc23)cc(OC)c1	4T1	cell growth or viability, MTT		10 µM, 72 h		inhibition	57%
